Published values of several laboratories.
Lines come from different studies, so protocols differ. ± gives the spread as reported.
Cell line: 22Rv1

SMILES = CCc1cc(N2C(=S)N(c3ccc(C#N)c(C(F)(F)F)c3)C(=O)C2(C)C)ccc1OCCN1CCN(CC(=O)Nc2cccc(NC3CCC(=O)NC3=O)c2)[C@H](C)C1 (some centres unmarked); assay = cell proliferation; setting = 120 h, 10% FBS; endpoint = GI50; value = 6.3 ± 0.621 µM
SMILES = CCOc1cncc(-c2ccc(NC(=O)C3(c4ccnc(NS(=O)(=O)C5CC5)n4)CCOCC3)nc2)n1; assay = cell growth or viability, ATP luminescence; setting = 72 h; endpoint = IC50; value = 0.054 µM
SMILES = Cc1ncsc1-c1ccc(C(C)NC(=O)C2CC(O)CN2C(=O)C(NC(=O)CCCCCCCCCCN2CCCC(Nc3ncc(Cl)c(Nc4ccccc4S(=O)(=O)C(C)C)n3)C2)C(C)(C)C)cc1 (centres unmarked); assay = RNA-seq, item: SP1 mRNA; setting = concentration not given; scale = relative to: DMSO; endpoint = log2 fold change; value = -1.06
SMILES = CCN(C(=O)c1cc(F)ccc1Oc1nncnc1N1CCC2(C1)CN([C@H](CCCN(C)CCOC)C(C)C)C2)C(C)C; assay = cell growth or viability; setting = 72 h; endpoint = GI50; value = > 10 µM
SMILES = O=C([O-])CN1CCN(CC(=O)[O-])CCN(CC(=O)NCC2CCC(C(=O)NC(Cc3ccc4ccccc4c3)C(=O)NCCCCC(NC(=O)NC(CCC(=O)O)C(=O)O)C(=O)O)CC2)CCN(CC(=O)[O-])CC1.[68Ga+3] (centres unmarked); setting = 2 h; scale = relative to: added dose; endpoint = maximum uptake; value = 3.51 ± 0.33%
SMILES = CNS(=O)(=O)Nc1nccc(Cc2c(C)c3ccc(Oc4ncccc4F)cc3oc2=O)c1F; assay = cell viability; setting = 7 days; endpoint = IC50; value = > 1 µM
SMILES = Cc1n[nH]c(C)c1CCCOc1cc(C(=O)NCCCCC(NC(=O)CN2CCN(CC(=O)[O-])CCN(CC(=O)[O-])CCN(CC(=O)[O-])CC2)C(=O)NCC2CCC(C(=O)NC(Cc3ccc4ccccc4c3)C(=O)NCCCCC(NC(=O)NC(CCC(=O)O)C(=O)O)C(=O)O)CC2)ccc1F.[177Lu+3] (centres unmarked); setting = 24 h, efflux; scale = relative to: dose; endpoint = cell retention; value = 4.07 ± 0.81%
SMILES = C=CC(=O)N1[C@H](c2ccc3c(c2)OCO3)c2[nH]c3ccccc3c2C[C@H]1C(=O)N1CCOCC1; assay = ATAC-seq; setting = concentration not given, log2FC 1; endpoint = increased accessible sites; value = 903 sites

A few entries again:
SMILES = CNS(=O)(=O)Nc1nccc(Cc2c(C)c3ccc(Oc4ncccc4F)cc3oc2=O)c1F; assay = cell viability; setting = 7 days; endpoint = IC50; value = > 1 µM
